Published values gathered from unrelated publications.
Lines come from different studies, so protocols differ. Several values in a cell are separate wells, animals, samples, runs or records. Numbers after ± are the reported error.
DRD4: D(4) dopamine receptor (DRD4, Homo sapiens, UniProt P21917)
UniProt P21917, sequence (whole entry, looked up): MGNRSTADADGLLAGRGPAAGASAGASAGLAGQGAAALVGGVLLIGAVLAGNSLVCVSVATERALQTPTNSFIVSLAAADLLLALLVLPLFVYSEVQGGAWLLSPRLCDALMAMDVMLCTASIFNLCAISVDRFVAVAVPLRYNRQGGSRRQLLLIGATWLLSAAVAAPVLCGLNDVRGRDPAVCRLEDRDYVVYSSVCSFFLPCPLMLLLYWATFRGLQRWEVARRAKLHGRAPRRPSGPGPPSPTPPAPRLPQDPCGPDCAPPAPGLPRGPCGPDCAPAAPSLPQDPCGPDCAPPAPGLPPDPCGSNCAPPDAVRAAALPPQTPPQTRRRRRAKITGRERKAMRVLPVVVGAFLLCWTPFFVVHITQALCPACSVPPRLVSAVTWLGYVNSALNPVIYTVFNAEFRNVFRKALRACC
ADRA1A: Alpha-1A adrenergic receptor (ADRA1A, Homo sapiens, UniProt P35348)
UniProt P35348, sequence (whole entry, looked up): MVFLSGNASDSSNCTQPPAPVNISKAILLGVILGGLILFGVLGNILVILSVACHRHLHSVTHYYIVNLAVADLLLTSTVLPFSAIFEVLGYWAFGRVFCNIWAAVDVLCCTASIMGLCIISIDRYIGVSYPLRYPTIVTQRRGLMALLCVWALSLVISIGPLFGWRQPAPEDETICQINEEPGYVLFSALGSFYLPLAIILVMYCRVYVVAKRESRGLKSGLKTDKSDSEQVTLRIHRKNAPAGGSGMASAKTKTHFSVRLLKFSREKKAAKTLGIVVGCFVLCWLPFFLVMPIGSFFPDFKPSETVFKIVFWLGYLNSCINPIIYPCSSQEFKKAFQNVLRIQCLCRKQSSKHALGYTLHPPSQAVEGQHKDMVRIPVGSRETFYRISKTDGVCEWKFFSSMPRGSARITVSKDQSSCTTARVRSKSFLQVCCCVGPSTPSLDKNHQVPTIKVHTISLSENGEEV
HDAC8: Histone deacetylase 8 (HDAC8, Homo sapiens, UniProt Q9BY41)
UniProt Q9BY41, sequence (whole entry, looked up): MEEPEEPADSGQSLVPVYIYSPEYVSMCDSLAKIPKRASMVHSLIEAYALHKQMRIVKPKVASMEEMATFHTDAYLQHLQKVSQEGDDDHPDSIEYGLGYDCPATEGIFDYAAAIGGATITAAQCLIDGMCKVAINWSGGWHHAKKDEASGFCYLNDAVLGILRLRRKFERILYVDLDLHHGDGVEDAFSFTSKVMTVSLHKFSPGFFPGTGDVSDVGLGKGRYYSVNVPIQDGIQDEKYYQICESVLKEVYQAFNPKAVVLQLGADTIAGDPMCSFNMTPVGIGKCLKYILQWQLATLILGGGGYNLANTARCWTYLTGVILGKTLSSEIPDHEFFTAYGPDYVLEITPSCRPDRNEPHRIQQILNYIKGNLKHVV
POL4: DNA polymerase IV (POL4, Saccharomyces cerevisiae, UniProt P25615)
UniProt P25615, sequence (whole entry, looked up): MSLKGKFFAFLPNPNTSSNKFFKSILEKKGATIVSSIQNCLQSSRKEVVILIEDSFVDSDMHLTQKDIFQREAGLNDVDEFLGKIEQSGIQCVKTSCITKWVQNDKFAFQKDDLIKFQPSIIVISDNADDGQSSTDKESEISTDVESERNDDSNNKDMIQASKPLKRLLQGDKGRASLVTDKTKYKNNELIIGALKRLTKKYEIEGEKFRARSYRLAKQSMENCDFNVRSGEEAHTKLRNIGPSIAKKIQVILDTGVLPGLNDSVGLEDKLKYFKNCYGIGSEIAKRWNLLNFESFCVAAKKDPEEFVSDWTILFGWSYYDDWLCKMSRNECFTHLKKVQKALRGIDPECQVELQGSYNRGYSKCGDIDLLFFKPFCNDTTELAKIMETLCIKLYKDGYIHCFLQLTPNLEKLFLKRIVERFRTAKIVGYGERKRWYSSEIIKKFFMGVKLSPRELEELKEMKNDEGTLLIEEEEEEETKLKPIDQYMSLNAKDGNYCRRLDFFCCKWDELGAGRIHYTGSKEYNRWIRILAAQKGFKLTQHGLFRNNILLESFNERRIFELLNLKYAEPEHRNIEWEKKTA
CNR1: Cannabinoid receptor 1 (CNR1, Homo sapiens, UniProt P21554)
UniProt P21554, sequence (whole entry, looked up): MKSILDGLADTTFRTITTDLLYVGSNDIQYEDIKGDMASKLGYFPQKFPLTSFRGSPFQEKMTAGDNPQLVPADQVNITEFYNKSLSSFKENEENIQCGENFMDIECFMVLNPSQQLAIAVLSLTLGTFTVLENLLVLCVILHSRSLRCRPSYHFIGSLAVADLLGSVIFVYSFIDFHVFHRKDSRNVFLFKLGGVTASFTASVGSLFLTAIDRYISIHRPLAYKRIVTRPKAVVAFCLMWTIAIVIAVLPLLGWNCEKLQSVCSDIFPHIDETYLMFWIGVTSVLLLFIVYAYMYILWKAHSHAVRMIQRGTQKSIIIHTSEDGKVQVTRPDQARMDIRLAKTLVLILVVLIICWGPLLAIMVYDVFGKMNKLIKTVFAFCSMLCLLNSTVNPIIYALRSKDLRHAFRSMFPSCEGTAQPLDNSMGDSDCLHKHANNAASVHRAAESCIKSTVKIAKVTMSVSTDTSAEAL
UniProt Q8ILG2, sequence (whole entry, looked up): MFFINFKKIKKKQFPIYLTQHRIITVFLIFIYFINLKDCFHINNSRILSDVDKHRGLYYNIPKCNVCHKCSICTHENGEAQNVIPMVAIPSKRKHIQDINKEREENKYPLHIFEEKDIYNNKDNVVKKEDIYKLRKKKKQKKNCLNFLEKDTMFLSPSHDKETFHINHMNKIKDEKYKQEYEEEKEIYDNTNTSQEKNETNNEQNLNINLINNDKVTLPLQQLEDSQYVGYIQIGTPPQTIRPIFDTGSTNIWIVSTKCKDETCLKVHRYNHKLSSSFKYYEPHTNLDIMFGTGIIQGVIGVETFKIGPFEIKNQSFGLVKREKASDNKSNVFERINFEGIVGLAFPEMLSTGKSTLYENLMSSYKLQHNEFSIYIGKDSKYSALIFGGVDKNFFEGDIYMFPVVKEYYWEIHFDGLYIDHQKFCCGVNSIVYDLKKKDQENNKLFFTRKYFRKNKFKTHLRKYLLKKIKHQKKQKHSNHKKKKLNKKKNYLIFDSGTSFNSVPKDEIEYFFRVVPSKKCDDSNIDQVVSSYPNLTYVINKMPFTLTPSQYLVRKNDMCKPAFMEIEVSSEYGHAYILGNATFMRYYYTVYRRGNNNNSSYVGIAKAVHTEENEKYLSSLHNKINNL
UniProt P50406, sequence (whole entry, looked up): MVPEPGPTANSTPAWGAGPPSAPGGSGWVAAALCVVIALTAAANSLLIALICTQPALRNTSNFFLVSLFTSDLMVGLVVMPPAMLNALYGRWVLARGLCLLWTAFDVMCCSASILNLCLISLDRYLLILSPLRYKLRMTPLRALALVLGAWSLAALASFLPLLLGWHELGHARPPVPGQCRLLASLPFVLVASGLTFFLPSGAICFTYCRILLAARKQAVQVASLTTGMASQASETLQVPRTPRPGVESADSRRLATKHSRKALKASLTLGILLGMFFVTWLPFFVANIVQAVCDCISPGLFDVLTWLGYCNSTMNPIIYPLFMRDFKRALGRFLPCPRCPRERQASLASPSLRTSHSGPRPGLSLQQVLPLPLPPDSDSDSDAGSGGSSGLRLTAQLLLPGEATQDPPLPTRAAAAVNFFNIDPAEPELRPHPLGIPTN
UniProt Q9H0K1, sequence (whole entry, looked up): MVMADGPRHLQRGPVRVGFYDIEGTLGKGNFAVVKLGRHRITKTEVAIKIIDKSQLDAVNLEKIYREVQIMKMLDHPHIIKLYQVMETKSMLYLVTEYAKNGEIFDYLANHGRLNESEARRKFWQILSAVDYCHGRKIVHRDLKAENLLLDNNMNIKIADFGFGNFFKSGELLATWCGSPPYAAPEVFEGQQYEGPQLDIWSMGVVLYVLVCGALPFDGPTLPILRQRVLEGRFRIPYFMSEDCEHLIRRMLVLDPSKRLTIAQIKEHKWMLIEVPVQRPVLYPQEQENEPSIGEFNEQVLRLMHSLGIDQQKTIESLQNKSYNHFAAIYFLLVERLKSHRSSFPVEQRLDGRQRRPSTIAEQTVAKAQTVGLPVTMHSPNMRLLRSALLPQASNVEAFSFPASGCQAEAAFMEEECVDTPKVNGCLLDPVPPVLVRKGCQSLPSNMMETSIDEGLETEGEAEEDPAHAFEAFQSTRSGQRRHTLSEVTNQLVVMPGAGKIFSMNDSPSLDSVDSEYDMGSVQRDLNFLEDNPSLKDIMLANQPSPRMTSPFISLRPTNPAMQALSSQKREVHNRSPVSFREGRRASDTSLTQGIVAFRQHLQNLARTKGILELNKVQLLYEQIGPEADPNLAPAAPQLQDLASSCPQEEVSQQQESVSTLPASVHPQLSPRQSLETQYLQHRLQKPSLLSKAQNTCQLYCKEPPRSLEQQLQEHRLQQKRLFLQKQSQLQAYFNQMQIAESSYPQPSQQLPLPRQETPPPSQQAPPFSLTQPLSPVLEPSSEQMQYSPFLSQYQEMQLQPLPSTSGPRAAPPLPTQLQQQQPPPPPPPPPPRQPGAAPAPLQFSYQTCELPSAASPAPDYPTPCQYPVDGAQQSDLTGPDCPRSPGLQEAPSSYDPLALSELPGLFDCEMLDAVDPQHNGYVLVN
UniProt Q99808, sequence (whole entry, looked up): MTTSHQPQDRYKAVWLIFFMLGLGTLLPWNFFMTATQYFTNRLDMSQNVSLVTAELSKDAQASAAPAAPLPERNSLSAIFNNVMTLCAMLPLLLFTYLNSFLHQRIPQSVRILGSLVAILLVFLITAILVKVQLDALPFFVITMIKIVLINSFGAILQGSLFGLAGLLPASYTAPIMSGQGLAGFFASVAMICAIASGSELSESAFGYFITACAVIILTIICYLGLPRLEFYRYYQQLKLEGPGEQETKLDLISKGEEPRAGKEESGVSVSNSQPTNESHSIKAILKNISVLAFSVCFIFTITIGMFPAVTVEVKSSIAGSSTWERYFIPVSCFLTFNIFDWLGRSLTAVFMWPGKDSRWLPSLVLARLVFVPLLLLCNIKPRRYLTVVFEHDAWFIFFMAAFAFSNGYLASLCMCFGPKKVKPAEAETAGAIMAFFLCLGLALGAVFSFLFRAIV
UniProt Q07440, sequence (whole entry, unmodified, looked up): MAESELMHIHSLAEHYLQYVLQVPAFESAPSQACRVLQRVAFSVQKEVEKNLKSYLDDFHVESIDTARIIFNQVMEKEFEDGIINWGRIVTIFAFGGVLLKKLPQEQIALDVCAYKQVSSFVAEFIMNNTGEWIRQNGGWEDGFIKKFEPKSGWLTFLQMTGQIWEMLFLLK

Fc1ccc(OCC2CN(Cc3ncn4ccccc34)CCC2(F)F)cc1 (stereo not shown) — Ki (DRD4; ligand displacement, radioligand): 117 nM
C=C1C(=O)C2(C(=O)N3CCN(c4ccc(Br)cc4)CC3)CC(=O)CC1C2 (racemic) — Ki (PTPN11 (Homo sapiens, UniProt Q06124); enzyme activity, covalent inhibitor; reversible binding constant, together with: pNPP): 69700 nM
CC1Cc2ccccc2N1C(=O)CN1CCN(c2ccccc2)CC1 (stereo not shown) — Ki (ADRA1A; ligand displacement, radioligand): 2010 nM
O=C(NO)c1cc(F)cc(OS(=O)(=O)Oc2ccc(Br)cc2)c1 — Ki (HDAC8; enzyme activity, inhibitor, fluorescence): 791 nM
c1ccc(CN2COc3c(c4c(c5c3CN(Cc3ccccc3)CO5)CN(Cc3ccccc3)CO4)C2)cc1 — Ki (Bcl-2-related protein A1 (Mus musculus, UniProt Q07440, C113S/P104K); ligand displacement, FP): 19700 nM
OCC1OC(n2cnc3c(NCc4ccc(Br)s4)ncnc32)C(O)C1O (stereo not shown) — Ki (SLC29A1 (Homo sapiens, UniProt Q99808); ligand displacement, radioligand): 52 nM
O=C(NO)c1cccc(OS(=O)(=O)Oc2ccccc2)c1 — Ki (HDAC8; enzyme activity, inhibitor, fluorescence): 77 nM
Cn1cnc2cc(CN3CCC(F)(F)C(COc4cccc(C#N)c4)C3)ccc21 (stereo not shown) — Ki (DRD4; ligand displacement, radioligand; cell membranes): 497 nM
O=C(NCCCOP(=O)(O)OP(=O)(O)OP(=O)(O)O)OCC1c2ccccc2-c2ccccc21 — Ki (POL4; DNA polymerase activity, inhibitor, [3H]dTTP incorporation; together with: poly(dA)/oligo(dT)): 250 nM
Cc1ccnc(OC[C@H]2CN(CCN3CCc4ccccc43)CCO2)c1 — Ki (DRD4; ligand displacement, radioligand): 1930 nM
C[C@H]1Cc2ccccc2N1C(=O)NCCCCN(C)[C@@H]1Cc2cccc3[nH]c(=O)n(c23)C1 — Ki (DRD4; binding): 25.5 ± 3.18 nM
CCc1c(Cl)cccc1N1CCN(C[C@H](F)CCNC(=O)c2cc3ccccc3[nH]2)CC1 — Ki (DRD4; ligand displacement, radioligand; cell membranes): > 10000 nM
CC(C)(C)c1cccc(OS(=O)(=O)Oc2cc(F)cc(C(=O)NO)c2)c1 — Ki (HDAC8; enzyme activity, inhibitor, fluorescence): 4560 nM
CCOC(=O)[C@H](Cc1ccc(OC)cc1)NC(=O)c1ccc(C2CC2)c(Cc2ccc(F)cc2)n1 — Ki (CNR1; ligand displacement, radioligand; cell membranes): 600 nM
Fc1ccc(OCC2CN(Cc3ncc4ccccn34)CCC2(F)F)cc1 (stereo not shown) — Ki (DRD4; ligand displacement, radioligand; cell membranes): 1410 nM
Cc1cc(C(C)(C)C)ccc1OS(=O)(=O)Oc1cncc(C(=O)NO)c1 — Ki (HDAC8; enzyme activity, inhibitor, fluorescence): 3280 nM
Cc1cc(OCC2CN(Cc3ncn4ccccc34)CCC2(F)F)ccc1F (stereo not shown) — Ki (DRD4; ligand displacement, radioligand; cell membranes): 6.5 nM
Cn1ccc2c(N3CCN(CCCCOc4ccc5c(c4)NC(=O)CC5)CC3)cccc21 — Ki (HTR6 (Homo sapiens, UniProt P50406); ligand displacement, radioligand): 1250 nM
CCC1(CC)CC(=O)N(C2c3cc(C(=O)NC4c5ccccc5CC4O)ccc3OC2(C)COC)C(=N)N1 (stereo not shown) — Ki (Plasmepsin IX (Plasmodium falciparum, UniProt Q8ILG2); enzyme activity, inhibitor, peptide cleavage): 0.683 nM and 0.68 nM
COc1ccc(CN2CCC(F)(F)C(COc3nc(C)cs3)C2)cc1F (stereo not shown) — Ki (DRD4; ligand displacement, radioligand; cell membranes): 855 nM
O=P(O)(O)OP(=O)(O)OP(=O)(O)OCCCCO — Ki (POL4; DNA polymerase activity, inhibitor, [3H]dTTP incorporation; together with: poly(dA)/oligo(dT)): 29000 nM
CCOc1cnc(C#N)cc1-c1ccn2nc(NC(=O)C3CC3)cc2c1 — Ki (SIK2 (Homo sapiens, UniProt Q9H0K1); enzyme activity, inhibitor): 1.65 nM
Cn1ncc2cc(CN3CCC(F)(F)C(COc4ccc(C#N)c(F)c4)C3)ccc21 (stereo not shown) — Ki (DRD4; ligand displacement, radioligand; cell membranes): 3.8 nM
CCOC(=O)[C@](CC)(CCCSCCOCCOCCN)NC(=O)c1ccc(C2CC2)c(Cc2ccc(F)cc2)n1 — Ki (CNR1; ligand displacement, radioligand; cell membranes): 64 nM
CN1CCC[C@@H]1C(=O)N[C@@H](Cc1ccc(-c2ccccc2)cc1)B(O)O — Ki (20S proteasome (Plasmodium falciparum, UniProt A0A5K1K7U1+Q8IJT1); inhibitor, progress curve; Ki as apparent Ki/2): 1.4 nM
Fc1ccc(OCC2CN(Cc3ncn4ccccc34)CCC2(F)F)cc1F (stereo not shown) — Ki (DRD4; ligand displacement, radioligand; cell membranes): 2.69 nM
CNC[C@H](O)c1cccc(OCCOCCOCCOCC#Cc2cccc(Cn3c(-c4ccccc4)c(-c4ccccc4)c4c(=N)n([C@H]5CC[C@H](O)CC5)cnc43)c2)c1 — Ki (ADRA1A; ligand displacement, radioligand; cell membranes): 1120 nM
CCOC(=O)C(CC)(CCCSCCOCCOCCN=[N+]=[N-])NC(=O)c1ccc(C2CC2)c(Cc2ccc(F)cc2)n1 (stereo not shown) — Ki (CNR1; ligand displacement, radioligand; cell membranes): 464 nM
CC(C)c1ccc(N(C)c2ccc3c(c2)OCC[C@H]3CNc2cnccc2C(=O)O)cc1 — Ki (KDM4C (Homo sapiens, UniProt Q9H3R0); enzyme activity, inhibitor, TR-FRET): 520 nM
O=C(NCCCCCCOP(=O)(O)OP(=O)(O)OP(=O)(O)O)OCC1c2ccccc2-c2ccccc21 — Ki (POL4; DNA polymerase activity, inhibitor, [3H]dTTP incorporation; together with: poly(dA)/oligo(dT)): 250 nM
CCOC(=O)C(CC)(CCCOC)NC(=O)c1ccc(C2CC2)c(Cc2ccc(F)cc2)n1 (stereo not shown) — Ki (CNR1; ligand displacement, radioligand; cell membranes): 5.6 nM
O=C(NO)c1cc(F)cc(OS(=O)(=O)Oc2ccc3ccccc3c2)c1 — Ki (HDAC8; enzyme activity, inhibitor, fluorescence): 828 nM
Cn1cnc2cc(CN3CCC(F)(F)C(COc4cccc(F)c4)C3)ccc21 (stereo not shown) — Ki (DRD4; ligand displacement, radioligand; cell membranes): 11.8 nM
CCOC(=O)C(CC)(CCCSCCOCCNc1ccc([N+](=O)[O-])c2nonc12)NC(=O)c1ccc(C2CC2)c(Cc2ccc(F)cc2)n1 (stereo not shown) — Ki (CNR1; ligand displacement, radioligand; cell membranes): 418 nM
Fc1ccc(-c2ccc3c(n2)[nH]c2ccncc23)cn1 — Ki (Microtubule-associated protein tau, PSP brain aggregates (MAPT, Homo sapiens, UniProt P10636); binding; PSP human brain tissue; together with: [3H]PI-2620): 28.3 nM
CC1Cc2ccccc2N1C(=O)CN1CCN(Cc2ccccc2)CC1 (stereo not shown) — Ki (ADRA1A; ligand displacement, radioligand): 7700 nM
CCOC(=O)C(CC)(CCCSCCOCCOCCOCCN)NC(=O)c1ccc(C2CC2)c(Cc2ccc(F)cc2)n1 (stereo not shown) — Ki (CNR1; ligand displacement, radioligand; cell membranes): 724 nM

For quick reference, copied from above:
C=C1C(=O)C2(C(=O)N3CCN(c4ccc(Br)cc4)CC3)CC(=O)CC1C2 (racemic) — Ki (PTPN11 (Homo sapiens, UniProt Q06124); enzyme activity, covalent inhibitor; reversible binding constant, together with: pNPP): 69700 nM
COc1ccc(CN2CCC(F)(F)C(COc3nc(C)cs3)C2)cc1F (stereo not shown) — Ki (DRD4; ligand displacement, radioligand; cell membranes): 855 nM
CCOc1cnc(C#N)cc1-c1ccn2nc(NC(=O)C3CC3)cc2c1 — Ki (SIK2 (Homo sapiens, UniProt Q9H0K1); enzyme activity, inhibitor): 1.65 nM
